Measured values from different studies.
Parts stem from different laboratories: compare values within a part only.

Block 1 — technique: protein binding microarray; form: double-stranded DNA, one strand shown; sample: in vitro; tested at: not given; reference: not given; reading: higher = stronger binding
Target: Histone acetyltransferase KAT6A, winged helix 2, GST fusion (KAT6A, Homo sapiens, UniProt Q92794, residues 85-181)
Setting: 8-mer, flanks averaged, mean of 2 arrays, mostly near background
Residues (chain): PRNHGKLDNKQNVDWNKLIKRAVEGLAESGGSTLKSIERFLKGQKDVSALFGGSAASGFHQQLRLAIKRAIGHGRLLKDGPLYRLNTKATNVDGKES
The E-score of `CAAAGACG` is reported as -0.0742.
`GGATGAAC` has an E-score of 0.0265.
`GCTATTAA` gave an E-score of 0.155.
`ACCACTAT` gave an E-score of -0.167.
`AACAATTA` has an E-score of -0.0756.
`CACAAATA` has an E-score of 0.0887.
The E-score of `ACCACGTC` is reported as -0.208.
The E-score of `TGAATCAA` is reported as 0.196.
For `AGTTAGTA`, the E-score was -0.0772.
With `CTGTATGA` the E-score was -0.0261.
`CCAAGCAG` gave an E-score of -0.0713.
`ATCCACAG` gave an E-score of 0.0548.
With `ATGGGGAA` the E-score was -0.0332.
`AAGCACGC` gave an E-score of 0.0563.
The E-score of `TCTGGGCA` is reported as 0.117.
The E-score of `CGATTTAG` is reported as -0.0477.
`CAGATTAG` has an E-score of -0.145.
The E-score of `CCAGTTTC` is reported as -0.0031.
With `CTGTTATC` the E-score was -0.205.
`GATAGCGC` gave an E-score of 0.178.
`ACGGTCTG` gave an E-score of 0.0242.
The E-score of `GAGTGTAC` is reported as -0.101.
`CCTCTAAC` has an E-score of -0.0882.
The E-score of `CGTCTGTA` is reported as 0.00569.
`AAGCACAA` gave an E-score of 0.131.

Block 2 — technique: protein-binding microarray; form: double-stranded DNA, one strand shown; sample: in vitro; tested at: 2200 nM top; setting: 60-bp whole probe; together with: salmon DNA 0.4 mg/ml; reference: random background probes; reading: higher = stronger binding; all sequences stand within: GCCTAGCAC … GTCTTGATTCGCTTGACGCTGCTG
Target: Interferon regulatory factor 7, full length, phosphomimetic (IRF7, Homo sapiens, UniProt Q92985, residues 1-503, S471D/S472D/S475D/S476D/S477D/S483D/S484D/S487D)
Sequence of UniProt Q92985 (whole entry, unmodified, looked up): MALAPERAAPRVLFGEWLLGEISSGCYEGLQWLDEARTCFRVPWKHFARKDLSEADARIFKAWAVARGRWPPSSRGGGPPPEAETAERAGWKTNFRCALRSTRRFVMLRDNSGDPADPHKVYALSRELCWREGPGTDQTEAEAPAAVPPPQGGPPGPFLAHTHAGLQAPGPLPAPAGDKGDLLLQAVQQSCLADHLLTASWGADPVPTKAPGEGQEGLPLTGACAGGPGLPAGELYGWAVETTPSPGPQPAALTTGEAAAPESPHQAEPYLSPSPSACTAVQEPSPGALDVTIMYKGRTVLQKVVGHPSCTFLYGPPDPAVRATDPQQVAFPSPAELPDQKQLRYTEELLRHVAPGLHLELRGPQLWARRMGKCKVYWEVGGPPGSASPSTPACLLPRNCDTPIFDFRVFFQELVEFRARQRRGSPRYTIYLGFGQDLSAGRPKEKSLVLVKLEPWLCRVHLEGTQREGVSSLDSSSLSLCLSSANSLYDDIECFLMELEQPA
`TCAAATCTCTCTTCACAACTGTGCTAG`: “fitted relative affinity” 0.808 z-score.
Under “fitted relative affinity”, `GACGAACTTAGTCTCGAGACGTGCTAG` is recorded as 0.0688 z-score.
`AGATATTTAGAACTTCTCCACGTGCTA` — result for “fitted relative affinity”: -0.135 z-score.
For `TTAGGACTGGACTTCCGGTTAGTGCTA`, “fitted relative affinity” read 0.0944 z-score.
`GATGGTTTCCTTTCCCTGACGTGCTAG` — result for “fitted relative affinity”: 4.35 z-score.
Under “fitted relative affinity”, `TTAGGTTTCCTGTTCCTTTAGTGCTAG` is recorded as 3.04 z-score.
`GGTCTTCTGGGCTGTTTGATCGTGCTA` — result for “fitted relative affinity”: 0.139 z-score.
`GACGGACTGGGACTGGGGACGTGCTAG` — result for “fitted relative affinity”: -0.959 z-score.
Under “fitted relative affinity”, `TTAGGTTTCGGGCTCGGTTAGTGCTAG` is recorded as 3.37 z-score.
For `CAAACAGAGACCCGGCAAGTGTGCTAG`, “fitted relative affinity” read -0.32 z-score.
`TCAGGTATCGACTTTCGGTTAGTGCTA` — result for “fitted relative affinity”: 6.28 z-score.
Under “fitted relative affinity”, `TACGAACTGGGGTATCGAGACGTGCTA` is recorded as -0.044 z-score.
`TTAGATATCAGTTTCGGTTAGTGCTAG`: “fitted relative affinity” 7.7 z-score.
Under “fitted relative affinity”, `TTAGATATCAGTCACGATTAGTGCTAG` is recorded as -0.1 z-score.
For `GACGATTTCGGGAATCGAGACGTGCTA`, “fitted relative affinity” read 0.994 z-score.
`GACGGTTTCGGTTTTCGGGACGTGCTA`: “fitted relative affinity” 12.4 z-score.
`TTCGGACTGGGGTATCGGTTAGTGCTA` — result for “fitted relative affinity”: -0.147 z-score.
Under “fitted relative affinity”, `GTAGATATCGGGTTTCGATTAGTGCTA` is recorded as 2.71 z-score.
`TTAGCTTTCCTTTCCCTTTAGTGCTAG` — result for “fitted relative affinity”: 5.53 z-score.
`GACGGACTGGGTCTCGGGGCGTGCTAG` — result for “fitted relative affinity”: -0.884 z-score.

Block 3 — technique: protein-binding microarray; form: hairpin DNA; sample: in vitro; tested at: not given; reference: not given; reading: higher = stronger binding
Target: Runt-related transcription factor 3, Runt domain (RUNX3, Homo sapiens, UniProt Q13761, residues 53-186)
Sequence of UniProt Q13761 (53-186, looked up): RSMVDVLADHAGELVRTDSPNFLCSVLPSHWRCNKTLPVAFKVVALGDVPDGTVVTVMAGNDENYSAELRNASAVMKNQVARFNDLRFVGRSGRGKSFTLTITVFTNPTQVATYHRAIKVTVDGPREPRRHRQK
Setting: whole hairpin DNA, median over replicate spots
For `GAGGCCTGGTGTGGTTGGCCTCCTGGCCAACCACACCAGGCCTCACACTC (5mC at 36)`, the median fluorescence was 5540 a.u.
`GAGGCCTCGTGCGGTTGGCCTCCTGGCCAACCGCACGAGGCCTCACACTC (5mC at 8 36)` gave a median fluorescence of 6170 a.u.
`GAGGCCTGTTGTGGCGGGCCTCCTGGCCCGCCACAACAGGCCTCACACTC` has a median fluorescence of 5010 a.u.
For `GAGGCCTGTTGCGGCTGGCCTCCTGGCCAGCCGCAACAGGCCTCACACTC`, the median fluorescence was 5990 a.u.
`GAGGCCCAACCGCCGCAGCCTCCTGGCTGCGGCGGTTGGGCCTCACACTC (5mC at 14 30)` gave a median fluorescence of 6620 a.u.
`GAGGCCCAACCGCAACAGCCTCCTGGCTGTTGCGGTTGGGCCTCACACTC (5mC at 33)` has a median fluorescence of 6380 a.u.
The median fluorescence of `GAGGCCTGTTGTGGTTCGCCTCCTGGCGAACCACAACAGGCCTCACACTC` is reported as 4900 a.u.
`GAGGCCTGTTGCGGTAGGCCTCCTGGCCTACCGCAACAGGCCTCACACTC` has a median fluorescence of 5270 a.u.
The median fluorescence of `GAGGCCTGTTGCGGTTAGCCTCCTGGCTAACCGCAACAGGCCTCACACTC` is reported as 11100 a.u.
For `GAGGCCTGTCCCGGTTGGCCTCCTGGCCAACCGGGACAGGCCTCACACTC (5mC at 11)`, the median fluorescence was 5040 a.u.
With `GAGGCCTGTTGCGGTTGGCCTCCTGGCCAACCGCAACAGGCCTCACACTC (5mC at 12 32)` the median fluorescence was 4920 a.u.
With `GAGGCCTATTGTGGTTGGCCTCCTGGCCAACCACAATAGGCCTCACACTC` the median fluorescence was 5050 a.u.
With `GAGGCGTGTCGCGGTTGGCCTCCTGGCCAACCGCGACACGCCTCACACTC (5mC at 39)` the median fluorescence was 6450 a.u.
`GAGGCCCAACCGCAACGGCCTCCTGGCCGTTGCGGTTGGGCCTCACACTC` has a median fluorescence of 9100 a.u.
`GAGGCCTGTTGTGCGTGGCCTCCTGGCCACGCACAACAGGCCTCACACTC` gave a median fluorescence of 4750 a.u.
The median fluorescence of `GAGGCCTGTTGCGGTTGGCCTCCTGGCCAACCGCAACAGGCCTCACACTC (5mC at 32)` is reported as 4870 a.u.

Block 4 — technique: RNA Bind-n-Seq; form: RNA; sample: in vitro; tested at: 365 nM; reference: no-protein control; reading: higher = stronger binding
Target: RNA binding protein fox-1 homolog 2, RRM domain, GST-SBP tag (RBFOX2, Homo sapiens, UniProt O43251-10, residues 100-194)
Setting: natural RNA segment, single round, ends assumed
Target sequence (chain): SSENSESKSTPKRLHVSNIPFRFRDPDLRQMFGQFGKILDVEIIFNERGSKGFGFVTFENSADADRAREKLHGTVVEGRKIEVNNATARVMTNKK
`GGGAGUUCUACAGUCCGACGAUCUCUCGUUCAAGGUCCAGAUCAAGUUCCAGAGAUAACCCUGACCUCGACGUUCUUUGCACACUAUAACAGAACACUUUCCUACUUGCUUAGGCAGUUACUCUUCCGAGUUUUGGAAUUCUCGGGUGCCAA` — result for “RBNS enrichment (R)”: 0.501.
For `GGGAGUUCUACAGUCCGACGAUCAGGGUUAGGCAAAUGGGGGACCUUCCUGUGUGCUCUUGGGGGUCUGCUCAGCAUCUGGAAAUUUGGGUGUGCGAUUUUCCCUGAACACAUUGCAUACCAGUGUAAAAAGAUGGAAUUCUCGGGUGCCAA`, “RBNS enrichment (R)” read 1.13.
`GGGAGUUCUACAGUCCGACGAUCUACCAUAGAAAAAUGUAUAAAAAUUAUCAAAAAGCUAAUGUGCAGGGAUAUUGCCUUAUUUGUCUGUAAAAAAUGGAGCUCAGUAACAUAACUGCUUCUUGGAGCUUUGGUGGAAUUCUCGGGUGCCAA` — result for “RBNS enrichment (R)”: 0.84.
For `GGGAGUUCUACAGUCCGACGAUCAAAAAAAUGUACCUGAUUGCUCCCAAUUAUGAGAGGAUUGGGUGGGCAGGGGAACUCCUAAAAUAAUACAUGACCACUUCCUCAUUUCUGGGGAAGGAAAGGAGACUAGAUGGAAUUCUCGGGUGCCAA`, “RBNS enrichment (R)” read 0.432.
For `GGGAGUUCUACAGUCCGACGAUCUGUGGUCUGCCCACACCUGUCUACUCUGGCAUGUGUCAGGAAAAGGAGCGUCAAAGGUGACCUUUACCCUCACAGCGUACCAAUAAACCACGGUGCCAGCUUUGGAGAUGUGGAAUUCUCGGGUGCCAA`, “RBNS enrichment (R)” read 0.31.
For `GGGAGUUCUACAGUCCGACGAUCAGAGCAGGCAUGAGCUGGGCUGUGGUGCAGAGCAAGCAGACCCAGCCACACUGCUCAAAGGUCCCUGCGUGGGGAGGUGUCACACCAGGGGCACACCCAGGGCCACCUGGUGGAAUUCUCGGGUGCCAA`, “RBNS enrichment (R)” read 0.543.
For `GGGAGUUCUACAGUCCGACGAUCGAUGGUGAUAUGAAACAAAAAGUGGCAAUUAUUGCAGGUUUCCUUUUAGUUUACAAAAGUACUGGAAACUAAAUCAUAUUUCUUCCCUCCAAAUUUCACCCAUUCCUGACUGGAAUUCUCGGGUGCCAA`, “RBNS enrichment (R)” read 0.42.
For `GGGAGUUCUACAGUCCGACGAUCGUGACUAUCUUAAGAAUAUUAUUUCUUUUUUUAAAAAAGAAUAUUAGAGAGAAAGAGAGAGAGAGAGAGUUGGCAUAAGGACAGUCUUAUCUGUGUCAACCCUCUGCCUGUGGAAUUCUCGGGUGCCAA`, “RBNS enrichment (R)” read 0.506.
For `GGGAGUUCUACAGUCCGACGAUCCUUGUUUAGGGCCAGCAACAGGGGUUCUGGCCCUGUUGAAACUUUAGUCCAGCCCUCUCGCAAUGGCUUGUGACUCACAGGAUUGCACCAUCCCCACUGCUAACUUGGGGUGGAAUUCUCGGGUGCCAA`, “RBNS enrichment (R)” read 0.608.
For `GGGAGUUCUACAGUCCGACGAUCUAAAUGUUUGGUUUAUAUAUUUUCUUUAAAAAUCCUGGGCUGGCACAUUGACUGGGAAACCUGAGUGAGACCCAGCAACUGCUUCUCUCCCUUCUCUCUCCUGAGGUGAAUGGAAUUCUCGGGUGCCAA`, “RBNS enrichment (R)” read 0.724.
Under “RBNS enrichment (R)”, `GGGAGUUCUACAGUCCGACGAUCCUCACACCUGUAAUCCCAACAUUUUGGGAGCCCAAGGCGGCCGGACCACCUGAGGUCGGGAGUUCAAGACCAGCCUGACCAACAUGGAGAAACCCUGUCUCUACUAAAAAUGGAAUUCUCGGGUGCCAA` is recorded as 0.317.
`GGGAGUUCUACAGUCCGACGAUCCCUAGUGUUAUCUGUUAUCUUACAAGCCUUUGCCUCUGUGCCUUUUCCUCAUGCUUUUUUGCUUAGAUUACUCUUUGACUGUACCUUCUGUUCAAAUUUGCUUCCUUCAUUGGAAUUCUCGGGUGCCAA`: “RBNS enrichment (R)” 0.896.

For quick reference, copied from above (block 1):
With `CTGTTATC` the E-score was -0.205.
`ACGGTCTG` gave an E-score of 0.0242.
`AAGCACGC` gave an E-score of 0.0563.
`CACAAATA` has an E-score of 0.0887.
`CCTCTAAC` has an E-score of -0.0882.
`GATAGCGC` gave an E-score of 0.178.
`AAGCACAA` gave an E-score of 0.131.
The E-score of `CGTCTGTA` is reported as 0.00569.
The E-score of `GAGTGTAC` is reported as -0.101.
The E-score of `TGAATCAA` is reported as 0.196.
